Measurements from different studies.
Each line is one published result; not all experiments were run side by side. “And” joins repeats or separate records; there may be more than shown. Numbers after ± are the reported error.

Structure (SMILES)	target	test	test system	conditions	endpoint	value
O=P(O)(O)Oc1c2c(c(OP(=O)(O)O)c3c1C1CC3c3cc4ccccc4cc31)C1CC2c2cc3ccccc3cc21	DOPC	1H NMR titration	methanol-d4	CH2-N(Me)3 signal	association constant	80 ± 6 M⁻¹
Cc1ccc2c(n1)c(-c1cccc(S(C)(=O)=O)c1)c(C)n2C/C(F)=C/CN	GABAA receptor (rat)	binding, radioligand binding	rat tissue	10 µM, Flunitrazepam	inhibition	14%
CC[C@@H]1CN2CCc3c([nH]c4cccc(OC)c34)[C@@H]2C[C@@H]1/C(=C\OC)C(=O)OC	rabbit anti-mitragynine polyclonal IgG	antigen binding, competitor, competitive indirect ELISA	10% methanol	60 min both antibody incubations	IC50	1 µg/mL and 0.8 µg/mL and 0.83 µg/mL and 0.82 µg/mL
Cc1cc(O)cc(C)c1C[C@H](N)C(=O)N[C@H](CCCNC(=N)N)C(=O)N[C@@H](Cc1ccccc1)C(=O)N[C@@H](CCCCN)C(=O)NCCNC(=O)[C@@H]1Cc2ccccc2CN1C(=O)[C@@H](N)Cc1c(C)cc(O)cc1C	delta opioid receptor (mouse)	antagonist	mouse vas deferens	together with: DPDPE	Ke	9.11 ± 0.79 nM
CC[C@H](C)[C@@H]1NC(=O)CNC(=O)[C@H](CC(=O)O)NC(=O)[C@H](CC(=O)O)NC(=O)[C@@H]2CSSC[C@@H]3NC(=O)[C@H](Cc4c[nH]cn4)NC(=O)[C@H](CCCNC(=N)N)NC(=O)[C@H](CCCNC(=N)N)NC(=O)[C@@H](NC(=O)[C@H](CO)NC(=O)[C@@H](N)Cc4c[nH]cn4)CSSC[C@H](NC(=O)[C@H](C)NC(=O)[C@H](Cc4c[nH]c5ccccc45)NC(=O)CNC(=O)[C@H](CSSC[C@@H](C(=O)N[C@@H](CCCCN)C(=O)N4CCC[C@H]4C(=O)N[C@@H](CC(C)C)C(=O)N[C@@H](CCCNC(=N)N)C(=O)N[C@H](C(=O)O)C(C)C)NC1=O)NC(=O)[C@H](CCCNC(=N)N)NC(=O)[C@H](CCCNC(=N)N)NC(=O)[C@H](CC(N)=O)NC(=O)[C@H](CCC(=O)O)NC(=O)[C@H](Cc1c[nH]cn1)NC3=O)C(=O)N[C@@H](Cc1ccc(O)cc1)C(=O)N2	hKv1.7 human			concentration not given	ion current	no effect
CC(C)C[C@H](NC(=O)[C@H](CC(=O)O)NC(=O)[C@@H](NC(=O)[C@H](CCC(=O)O)NC(=O)[C@H](CCCCN)NC(=O)[C@H](Cc1ccc(O)cc1)NC(=O)[C@H](CCCCN)NC(=O)[C@H](Cc1c[nH]cn1)NC(=O)CNC(=O)CN)[C@@H](C)O)C(N)=O	HCV IRES RNA	RNA cleavage, gel electrophoresis	hepatitis C virus	10 µM, together with: co-reagents 1 mM, fluorescein-labelled HCV RNA 10 µM	initial rate	314 nM/min
Nc1ncc(-c2cc(-c3cnn(CC(F)(F)F)c3)ncc2F)nc1C(=O)NC1CNCC(F)C1 (stereo not drawn)	EGFR L858R T790M	KINOMEscan		1 µM	remaining binding	100%
Cn1ccc2cc(-n3c(=O)[nH]c4sc5c(c4c3=O)CCCC5)ccc21	rat NMDA receptor	radioligand binding		10 µM, phencyclidine site	inhibition	-2%
CC[C@H](C)[C@H](NC(=O)[C@H](CC(C)C)NC(=O)[C@H](CC(C)C)NC(=O)[C@H](CC(=O)O)NC(=O)[C@@H](NC(=O)[C@H](CCC(=O)O)NC(=O)[C@H](CCCCN)NC(=O)[C@H](Cc1ccc(O)cc1)NC(=O)[C@H](CCCCN)NC(=O)[C@H](Cc1c[nH]cn1)NC(=O)CNC(=O)CN)[C@@H](C)O)C(=O)N[C@@H](CC(C)C)C(=O)N[C@@H](Cc1ccccc1)C(=O)N[C@@H](CCCCN)C(=O)N[C@@H](CC(=O)O)C(=O)N[C@@H](CC(=O)O)C(=O)N[C@@H](Cc1ccc(O)cc1)C(=O)N[C@@H](Cc1ccccc1)C(=O)N[C@@H](C)C(=O)N[C@@H](CCCCN)C(=O)N[C@@H](CCCCN)C(=O)N[C@@H](CC(N)=O)C(=O)N[C@@H](CCC(=O)O)C(=O)N[C@@H](CCC(=O)O)C(=O)N[C@@H](CCCNC(=N)N)C(=O)N[C@@H](CCCCN)C(N)=O	HCV IRES RNA	MALDI-TOF mass spectrometry, item: 3'-phosphate products	hepatitis C virus		initial cleavage rate	6.4 ± 1.3 %/min

For quick reference, copied from above:
Structure (SMILES)	target	test	test system	conditions	endpoint	value
Nc1ncc(-c2cc(-c3cnn(CC(F)(F)F)c3)ncc2F)nc1C(=O)NC1CNCC(F)C1 (stereo not drawn)	EGFR L858R T790M	KINOMEscan		1 µM	remaining binding	100%
